{"data": "Measurements from different studies", "note": "Protocols differ between the studies behind these lines. Values joined by “and” are separate records of one study, mostly repeats; a detail may differ. Numbers after ± are the reported error."}
{"SMILES": "COC1OC(C)C(O)C(OC2OC(C)C(O)C(OS(=O)(=O)O)C2OS(=O)(=O)O)C1OS(=O)(=O)O (stereo not drawn)", "system": "human plasma", "conditions": "128 µg/mL", "quantity": "activated partial thromboplastin time", "result": "33.3 ± 0.5 s"}
{"SMILES": "COc1cc(O)ccc1CCC(c1ccc(O)cc1)c1cc2c(c(C)c1O)OC(c1ccc(O)cc1)CC2 (mixture of isomers)", "assay": "item: PGD2", "system": "human whole blood", "conditions": "3 µM, together with: Escherichia coli", "quantity": "amount", "result": "126 ± 55 pg/mL blood"}
{"SMILES": "O=C(c1ccc(C2CCCCC2)cc1)N1CCC(F)CC1", "assay": "liver microsome stability", "system": "dog liver microsomes", "conditions": "1 µM", "quantity": "hepatic clearance", "result": "24 mL/min/kg"}
{"SMILES": "Cc1ccc(N(O)/N=N/c2ccc(S(=O)(=O)Nc3nccs3)cc2)cc1", "assay": "ABTS scavenging", "conditions": "180 µg/mL", "quantity": "inhibition", "result": "99.7%"}
{"SMILES": "Nc1ncc(-c2ccc([C@H]3[C@@H](F)[C@@H](F)C[C@@H](F)[C@H]3F)cc2)cn1", "assay": "hepatocyte stability", "system": "cryopreserved human hepatocytes", "conditions": "1 µM", "quantity": "hepatic clearance", "result": "6.2 mL/min/kg"}
{"SMILES": "COC1CN([C@H]2CC[C@H]([C@@]3(C)Oc4c(Cl)cc(C(=O)NCc5c(SC)cc(C)[nH]c5=O)c(C)c4O3)CC2)C1", "assay": "RNA-seq, item: EXOC6B", "system": "human, whole blood", "conditions": "dose not given, 24 h", "scale": "reference: pretreatment baseline", "quantity": "log2 fold change", "result": 1.2}
{"SMILES": "COc1c(Cl)cccc1Nc1c(-c2ccncc2C#C[C@@]2(C)CCCN2C(=O)/C=C/CN(C)C)[nH]c2c1C(=O)NCC2", "system": "female NOD/SCID mouse, PDX", "conditions": "50 mg/kg once daily, 21 days, HER2 YVMA", "quantity": "tumour growth inhibition", "result": "130%"}
{"SMILES": "COC1OC(C)C(OC2OC(C)C(OS(=O)(=O)O)C(OC3OC(C)C(OC4OC(C)C(OS(=O)(=O)O)C(OC5OC(C)C(OS(=O)(=O)O)C(OS(=O)(=O)O)C5OS(=O)(=O)O)C4OS(=O)(=O)O)C(OS(=O)(=O)O)C3OS(=O)(=O)O)C2OS(=O)(=O)O)C(OS(=O)(=O)O)C1OS(=O)(=O)O (stereo not drawn)", "system": "human plasma", "conditions": "16 µg/mL", "quantity": "activated partial thromboplastin time", "result": "47.5 s and 47.4 s and 47.2 s"}
{"SMILES": "Nc1nc2cc(CC[C@H]3C[C@@H](n4ccc5c(N)ncnc54)[C@H](O)[C@@H]3O)ccc2cc1Br", "system": "NCI-H441 xenograft, mouse", "conditions": "10.0 mg/kg/day, day 38", "quantity": "%ΔTGI", "result": "141%"}
{"SMILES": "CN1CCC[C@]1(C)/C=C/S(=O)(=O)NC(=O)Nc1c2c(cc3c1CCC3)CCC2", "system": "human, whole blood ex vivo", "conditions": "100 mg twice daily, day 14, 3 h, multiple ascending dose, together with: LPS and ATP", "quantity": "IL-1β inhibition", "result": "99.8%"}
{"SMILES": "COC1OC(C)C(OS(=O)(=O)O)C(OC2OC(C)C(OS(=O)(=O)O)C(OC3OC(C)C(OS(=O)(=O)O)C(OC4OC(C)C(OS(=O)(=O)O)C(OC5OC(C)C(OS(=O)(=O)O)C(OS(=O)(=O)O)C5OS(=O)(=O)O)C4OS(=O)(=O)O)C3OS(=O)(=O)O)C2OS(=O)(=O)O)C1OS(=O)(=O)O (stereo not drawn)", "system": "human plasma", "conditions": "64 µg/mL", "quantity": "activated partial thromboplastin time", "result": "92.4 s and 92.6 s and 94.3 s"}
{"SMILES": "COCC1CN(C2CCN(c3cc(OC)c(Nc4ncc(Br)c(Nc5ccc6c(c5P(C)(C)=O)OCCO6)n4)cc3C)CC2)C1", "assay": "RECIST 1.1", "system": "advanced EGFR-mutant NSCLC patients", "conditions": "10 mg once daily", "quantity": "disease control rate", "result": "0%"}
